Results gathered from unrelated publications.
Each numbered part is a random draw from the data of one study; scales do not carry over between parts.

Series 1 — technique: aptamer microarray, sandwich; form: DNA with 2'F-ANA; sample: in vitro; tested at: 200 nM; together with: Cy3 exosite-II aptamer, 400 nM; direction: higher = stronger binding; oligonucleotide: GGTTGGTGTGGTTGG
Target: Prothrombin, mature alpha-thrombin (F2, Homo sapiens, UniProt P00734)
Notes: whole 15-mer aptamer, many near background
| Modification | mean fluorescence intensity [a.u.] |
| --- | --- |
| 2'F-ANA at 1 3 4 5 6 7 8 9 11 12 14 | 48.7 |
| 2'F-ANA at 2 3 5 6 7 8 9 14 | 52.7 |
| 2'F-ANA at 1 3 6 7 8 9 10 11 13 15 | 79.5 |
| 2'F-ANA at 2 3 4 5 6 7 8 9 10 11 12 15 | 56 |
| 2'F-ANA at 2 3 6 8 10 11 12 14 | 261 |
| 2'F-ANA at 1 2 3 7 13 15 | 208 |
| 2'F-ANA at 2 5 6 8 11 13 14 | 48.2 |
| 2'F-ANA at 3 6 8 14 | 587 |
| 2'F-ANA at 1 2 3 4 5 6 8 9 10 14 | 51.5 |
| 2'F-ANA at 1 4 5 7 9 10 11 12 13 15 | 58.2 |
| 2'F-ANA at 1 4 5 7 13 14 | 54.7 |
| 2'F-ANA at 1 3 4 5 6 8 11 13 14 | 55 |
| 2'F-ANA at 1 2 5 7 9 13 14 15 | 46.2 |
| 2'F-ANA at 2 3 4 8 9 10 14 | 191 |
| 2'F-ANA at 1 3 4 5 7 9 10 11 12 13 14 | 67.7 |
| 2'F-ANA at 3 5 6 7 8 11 12 13 14 15 | 69.6 |
| 2'F-ANA at 3 4 8 9 10 12 14 | 208 |
| 2'F-ANA at 2 7 8 9 10 12 14 15 | 97.7 |
| 2'F-ANA at 1 6 7 8 10 11 12 14 | 54.6 |
| 2'F-ANA at 1 3 5 8 11 12 13 14 | 49.4 |
| 2'F-ANA at 1 2 4 7 8 9 15 | 339 |

Series 2 — technique: universal PBM; form: double-stranded DNA, one strand shown; sample: in vitro; tested at: not given; direction: higher = stronger binding
Target: Sal-like protein 4, full length isoform B (SALL4, Homo sapiens, UniProt Q9UJQ4-2, residues 1-616)
Notes: 8-mer, flanks averaged, mean of replicates
| Oligonucleotide | E-score |
| --- | --- |
| GACGATCA | 0.0101 |
| GAACAATC | 0.0519 |
| CCGATAGC | -0.223 |
| ACGAACTA | 0.0247 |
| ACGCTTTC | -0.0778 |
| TAGGTTGA | -0.0443 |
| CGCACAAC | 0.0232 |
| CTTTTATA | 0.273 |
| ACTTCTCG | 0.0294 |
| ACGCGTCG | -0.0758 |
| ACTGATAG | 0.0968 |
| ACTGCTCA | 0.00478 |
| ACACAGCG | -0.0356 |
| ACCTACCC | -0.345 |
| ATGAGAAA | 0.227 |
| AATTGAAT | 0.277 |
| CCATTAGA | -0.105 |
| GTGTGTGA | -0.0726 |
| AGATACGA | 0.115 |
| GCATACCC | -0.17 |
| GCCCTTGA | -0.203 |

Series 3 — technique: RNA Bind-n-Seq; form: RNA; sample: in vitro; tested at: not given; baseline: input RNA pool; direction: higher = stronger binding
Target: RING finger protein unkempt homolog, zinc fingers 1-6, GST-SBP tag (UNK, Homo sapiens, UniProt Q9C0B0, residues 30-357)
Chain of UniProt Q9C0B0 (30-357, looked up): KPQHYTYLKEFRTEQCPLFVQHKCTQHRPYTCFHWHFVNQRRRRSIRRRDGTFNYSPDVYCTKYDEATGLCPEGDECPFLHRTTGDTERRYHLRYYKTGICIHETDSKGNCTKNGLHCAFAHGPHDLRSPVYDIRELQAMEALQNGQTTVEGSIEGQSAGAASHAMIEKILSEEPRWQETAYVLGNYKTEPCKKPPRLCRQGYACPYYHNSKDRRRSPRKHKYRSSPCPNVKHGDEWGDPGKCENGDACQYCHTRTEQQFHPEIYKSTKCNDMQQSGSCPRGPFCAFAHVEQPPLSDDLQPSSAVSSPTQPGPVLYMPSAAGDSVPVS
Notes: RNA with constant flanks, human-mouse chimeric sites, ends assumed
Shared flanks, not repeated: GGGAGUUCUACAGUCCGACGAUC … CAACAGAGGAUUGAGCAUCA
| Oligonucleotide | bound/input enrichment |
| --- | --- |
| GGGUGGGUGGUCAUUGCCGUUUGAGCUGCUGAUUUUCUUAUGAAUCAUUCAAAACUCUCGUGUAGGGUUGACAAUGUGGGGGGGUGGGGGAUCCAGCUUAUUCUUUUAUUUUCAAGUCCA | 0.656 ratio |
| AUCAAAUACUUUGGGGACAUCAUUAGUGUGGGACAGAGACUGUUGCAAGGGGCCCGGAUCUUAGGGAUUCCUGUUAUCAUAACGGAACAAUACCCCAAAGGACUUGGCAGCACCGUUCAA | 0.199 ratio |
| UCUGGCCACACUCGUGUGUAUGGUGUUUGCUUUGUGGACACUUCACUGGGCAAGUUUUUCAUCGGCCAGUUUUCGGAUGACCGCCACUGUUCCAGAUUUAGGACUCUAGUGGCUCACUAU | 0.138 ratio |
| GCAAAGGAUGAUGAGGCGGCAGCUGUUGCCCUUUCCUCUCUCGUUCAUGCUUUGGAUGACUUAGACAUGGUCGCCAUCGUCCGAUAUGCUUAUGACAAAAGAUCUAAUCCUCAAGUUGGU | 0.259 ratio |
| GUACUGCAACAGCAGGGAAAACUGCAGGAAGCUCUGAUGCAUUAUAAGGAGGCUAUUCGAAUCAGUCCUACCUUUGCUGAUGCCUACUCCAAUAUGGGAAACACUCUAAAGGAGAUGCAG | 0.129 ratio |
| CAGGGCAUCAUCUCUCGUGCUGUUAGACACCUGUUCAAGAGUAUUGAUGAGAAAAAGACCUCAGCGAUUAAAAACGGGCUUCCUGCUCCUGAAUUCAAAGUGAAUGCCCAAUUCUUAGAG | 0.223 ratio |
| UUACCCGAGAACGAGGAUGAGCUGGAGAGCACCAACAGGCGCUACACCAAGAGGGACUGUAGCACUUUCCUCAGAACUAGUGAGACGGGCAUCGUGGACCAGGUCAUGGUCACUCUCAAC | 0.261 ratio |
| ACAGUUAUAUUGUUGAGUUUCAUUUUCUUGUAUGUUUGUAGUGUCUGCUUGCCUGUGACUUCUGGUAAAAUAAAAUAAGCCUUUGAAAAUAUUUUAGCAUGGUAUUUAACAUUUUCUAAA | 0.764 ratio |

Series 4 — technique: RNA Bind-n-Seq; form: RNA; sample: in vitro; tested at: 365 nM; baseline: no-protein control; direction: higher = stronger binding
Target: RNA binding protein fox-1 homolog 2, RRM domain, GST-SBP tag (RBFOX2, Homo sapiens, UniProt O43251-10, residues 100-194)
Notes: natural RNA segment, single round, ends assumed
Shared flanks, not repeated: GGGAGUUCUACAGUCCGACGAUC … UGGAAUUCUCGGGUGCCAA
Construct (chain): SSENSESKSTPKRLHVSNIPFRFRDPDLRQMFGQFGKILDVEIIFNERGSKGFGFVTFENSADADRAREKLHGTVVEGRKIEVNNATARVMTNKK
| Oligonucleotide | RBNS enrichment (R) |
| --- | --- |
| CAGAGAUGUCUUAACUUGUCAGGAGUCCUUACCUGACAUGACCCUGUUUCAACAGGAAAGUAGAUGUUUUGUGCUCCUUUUUGGAUUUUAUCUUCUUGCACAUGUUUGUA | 12.4 |
| UCUGACGUCCACCUCCUACCCCAUAGGAGUUAGAAGUUAGGGUUUAGGCAUCAUUUUGAGAAUGCUGACACUUUUUCAGGGCUGUGAUUGAGUGAGGGCAUGGGUAAAAA | 0.581 |
| UAAAUCAAUUCUUCAACCCUUGGGUGUGUGAGUUUGAGGCAGGGUCAUUUGUGUGAUGUGUUUGGCCUUACCAAAGCAAAAGAGGGUGCAAGAAUGUGGGAGUAUGUCUG | 2.39 |
| UGUAUUGAAUAUUAAGUGUCACUGAAGCAAUGUUUGUGUUGACUAGAAACGUAAGAUGACUUGUGUAGCACCUCUUUAUAAGCACACAGCUCAUCUUAAUAUUUUCCAUU | 0.74 |
| GUGGAGCAUUUCCUGAAAGGCUUGAAUGAGCUGGUUCCUGAGAACCUCCUGGCUAUUUUUGAUGAGAAUGAGCUUGAGCUGCUGAUGUGUGGGACUGGAGACAUCAAUGU | 4.25 |
| AAUGAAGGAUGUUUCCCGUAGGUUUUGUGCAGUCCAGUUGCCCUAAAGGACCAACCUGCCUUACGUAUCAGUUUAGUUCCUGAAAUCAGUGGAACUAUUCAAGGGACGGA | 0.341 |
| CAGGUAUUGUGUGUAUGCAUUUAGUUGUGCACACACAAAUAUGCUCCUAUACUGGCAUUAGGCGUCUCCUCAUCCCUCACCCUGACCUUUCUCCUGUCCUUUUCUUGGCU | 0.54 |
| GUGUGUUGGUGUGCUUCUGUGUGGCUGUCCCUGUUGCUAGCAGAUCACAGUGAUUUGGUCCCAUUGGAGCCUUUGGCCCCAGGGGCACUCACUUUUUCUCAUCAGAGUCU | 0.357 |

Series 5 — technique: protein binding microarray; form: double-stranded DNA, one strand shown; sample: in vitro; tested at: not given; baseline: not given; direction: higher = stronger binding
Target: Histone acetyltransferase KAT6A, winged helix 2, GST fusion (KAT6A, Homo sapiens, UniProt Q92794, residues 85-181)
Notes: 8-mer, flanks averaged, mean of 2 arrays, mostly near background
Construct (chain): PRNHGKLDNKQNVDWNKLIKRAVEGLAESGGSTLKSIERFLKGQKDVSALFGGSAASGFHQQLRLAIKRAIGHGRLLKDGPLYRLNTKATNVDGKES
| Oligonucleotide | E-score |
| --- | --- |
| AGTTGCCG | -0.0326 |
| AGCTGGAA | -0.0869 |
| GTAAGCGA | 0.0581 |
| AGACAGAA | 0.108 |
| CCGAACCG | 0.137 |
| AGGCCTCA | -0.161 |
| GCGACAAA | 0.0822 |
| CCGCGAGC | 0.222 |
| ATCTGATG | -0.0207 |
| CCCGTACC | -0.0388 |
| ATCTGCTC | 0.118 |
| ATCCCTCA | 0.111 |
| CGGATCTA | 0.0588 |
| ACTTTTAC | 0.0193 |
| TAATGGTA | 0.0509 |
| CTTAAGGA | -0.00301 |
| CTTTAGAA | 0.0482 |
| GCTCCGCA | 0.139 |
| ACGTATGA | 0.101 |
| CTGGAATA | -0.00686 |
| ATCCGCCG | 0.305 |
| CATCCGAA | 0.0954 |
| ACCAGTAA | -0.00426 |

For quick reference, copied from above (series 5):
| Oligonucleotide | E-score |
| --- | --- |
| CTTAAGGA | -0.00301 |
| CTTTAGAA | 0.0482 |
| GCTCCGCA | 0.139 |
| ACGTATGA | 0.101 |
| CTGGAATA | -0.00686 |
| ATCCGCCG | 0.305 |
| CATCCGAA | 0.0954 |
| ACCAGTAA | -0.00426 |
